Measured values gathered from unrelated publications.
Protocols differ between the studies behind these lines.
Target: Muscarinic acetylcholine receptor M1 (CHRM1, Homo sapiens, UniProt P11229)
Residues used in one study (P11229 1-460): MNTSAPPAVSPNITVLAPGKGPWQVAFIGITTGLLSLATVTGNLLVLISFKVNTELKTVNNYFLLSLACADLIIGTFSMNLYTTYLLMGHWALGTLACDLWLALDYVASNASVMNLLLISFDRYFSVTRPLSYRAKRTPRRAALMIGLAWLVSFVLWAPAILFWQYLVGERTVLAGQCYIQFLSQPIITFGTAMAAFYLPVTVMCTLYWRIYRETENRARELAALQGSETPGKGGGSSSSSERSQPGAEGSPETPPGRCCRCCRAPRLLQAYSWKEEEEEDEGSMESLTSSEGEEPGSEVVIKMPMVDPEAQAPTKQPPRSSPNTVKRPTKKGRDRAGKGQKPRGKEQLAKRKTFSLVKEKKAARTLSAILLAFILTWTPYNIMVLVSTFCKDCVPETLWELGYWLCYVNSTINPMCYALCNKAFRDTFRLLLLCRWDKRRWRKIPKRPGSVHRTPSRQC

| SMILES | assay | test system | conditions | scale | measurement | result |
| --- | --- | --- | --- | --- | --- | --- |
| Cc1ccc(Cn2nc3c4ccccc4n(Cc4ccc(-n5cccn5)cc4)cc-3c2=O)c(C)c1 | calcium mobilization, positive allosteric modulator | CHO-K1 cells | 30 µM, added: submaximal acetylcholine | – | maximal ACh response | 80% |
| COc1cc(Cl)c(C(=O)N[C@@H](CN[C@H]2CC[C@@H](N)CC2)Cc2ccc(C#N)cc2)cc1-c1ccc(CN[C@H](C)c2ccc(C)cc2)o1 | agonist response, antagonist | human cells | 10 µM, M1 antagonist | – | inhibition | 65% |
| CCCC(CCC)c1nc2c(Nc3ccc(C#CCCCCCCCCN)cc3)nc3ccccc3c2[nH]1 | PDSP screening | – | – | – | off-target affinity | inactive |
| Cc1ccc(C)c(Cn2nc3c4ccccc4n(Cc4ccccc4)cc-3c2=O)c1 | calcium mobilization, positive allosteric modulator | CHO-K1 cells | 30 µM, added: submaximal acetylcholine | – | maximal ACh response | 40% |
| CCN1/C(=C/C(C)=O)Sc2ccc(F)cc21 | – | – | 10 µM | – | inhibition | 0% |
| CN(C(=O)n1cnc(-c2ccc[n+]([O-])c2)c1)C1CCCCC1 | binding | – | 10 µM | – | inhibition | -9.44% |
| OCCCN1CC[C@@H]2C[C@H]1c1cc(-c3ccc(C(F)(F)F)cc3)ccc12 | radioligand binding, PDSP competition binding | – | 10 µM | – | inhibition | < 50% |
| O=C(NO)c1ccc(CN2CCCCc3ccccc32)c(F)c1 | radioligand binding, radioligand displacement | – | 10 µM, mean of replicates | – | inhibition | 24.3% |
| CN1CCC(CNc2ccc3ncc(-c4cccc(OC(F)(F)F)c4)n3n2)CC1 | cell-based | – | 10 µM | reference: control | response | > 50% |

Excerpt of the above:
| SMILES | assay | test system | conditions | scale | measurement | result |
| --- | --- | --- | --- | --- | --- | --- |
| Cc1ccc(C)c(Cn2nc3c4ccccc4n(Cc4ccccc4)cc-3c2=O)c1 | calcium mobilization, positive allosteric modulator | CHO-K1 cells | 30 µM, added: submaximal acetylcholine | – | maximal ACh response | 40% |
